# Assay results collected from several papers.
# Numbered parts are unrelated; each lists some results of a single study.

# Sample 1
# Target: Phosphate system positive regulatory protein PHO4, full length, GST-tagged (PHO4, Saccharomyces cerevisiae, UniProt P07270, residues 1-312)
# Technique: competition protein-binding microarray
# Molecule type: double-stranded DNA, one strand shown
# Medium: in vitro
# Concentration: 2 µM
# Notes: whole 60-bp probe, lowest competitor level
# Together with: Cbf1 competitor, 0.05 µM
# Reading: higher = stronger binding
# Residues (chain): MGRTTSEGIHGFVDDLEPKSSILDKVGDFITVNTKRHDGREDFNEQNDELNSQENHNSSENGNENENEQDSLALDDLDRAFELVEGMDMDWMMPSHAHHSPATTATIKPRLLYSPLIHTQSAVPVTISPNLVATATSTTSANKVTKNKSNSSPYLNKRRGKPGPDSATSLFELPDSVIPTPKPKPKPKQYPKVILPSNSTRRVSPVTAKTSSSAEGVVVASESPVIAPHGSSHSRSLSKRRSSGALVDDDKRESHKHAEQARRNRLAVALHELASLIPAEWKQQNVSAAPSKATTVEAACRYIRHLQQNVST
Sequence,fluorescence intensity
CGTCCTAGTGATTTTCACGTGCATTCCATGAGGAAGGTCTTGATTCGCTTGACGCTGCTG,12600 a.u.
ATCTAGCTCTGCACACATGTGACGGAACGAAGCATCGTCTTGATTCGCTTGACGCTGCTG,11300 a.u.
CTGTTCCTAAGTTATTTCGTGGGACAAGCGGACATGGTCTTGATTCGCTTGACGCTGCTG,6320 a.u.
AAAGCGGTAATTTGCGGAGTGGGTGCAGATATCTATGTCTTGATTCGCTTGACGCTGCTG,4300 a.u.
AGGCGGGTATTCCACCTGGTGTGTTCAACATTGTATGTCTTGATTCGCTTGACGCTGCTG,5580 a.u.
CGGGGTTAAGTTTTTCACGTGAGGTGCTTGCAGCAGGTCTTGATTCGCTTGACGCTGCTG,8950 a.u.
GCTGGAATGCCGCGACAGATGTAACAAGAATGTGTTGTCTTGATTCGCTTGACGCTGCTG,5020 a.u.
GAGTCATAAGCATAACATGTGGTTCCAGAAGCACTTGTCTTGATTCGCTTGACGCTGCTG,11000 a.u.
TTGCCGTGTGAAGGCAACGTGATGGCCGCTACACTAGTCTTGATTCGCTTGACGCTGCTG,10400 a.u.
TGAGTCTTTGGGTCCCACGTGCTTTCTAAAACTTCAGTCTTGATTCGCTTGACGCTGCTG,17100 a.u.
TGACATTGCCACCATCACGTTGTCAAACTTTGCCGGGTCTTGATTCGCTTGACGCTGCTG,11000 a.u.
AAATTACTAAGTTCACACGTGTTTTACCCCGTATGAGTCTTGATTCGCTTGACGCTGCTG,18800 a.u.
AGTACTTGACTGCACCTCGTGTCGGAAGATTTTCCAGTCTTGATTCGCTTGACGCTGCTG,12400 a.u.
TGCGCAACAACTTTTCACGTGAACTTATGTCTAGAAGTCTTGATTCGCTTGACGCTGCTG,9450 a.u.

# Sample 2
# Target: RNA binding protein fox-1 homolog 2, RRM domain, GST-SBP tag (RBFOX2, Homo sapiens, UniProt O43251-10, residues 100-194)
# Technique: RNA Bind-n-Seq
# Molecule type: RNA
# Medium: in vitro
# Concentration: 365 nM
# Notes: natural RNA segment, single round, ends assumed
# Baseline: no-protein control
# Reading: higher = stronger binding
# Construct (chain): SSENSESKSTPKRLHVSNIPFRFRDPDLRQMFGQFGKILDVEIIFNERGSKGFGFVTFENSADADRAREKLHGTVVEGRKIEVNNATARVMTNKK
Sequence,RBNS enrichment (R)
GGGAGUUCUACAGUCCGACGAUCCUCACUGCACAGCUUCUAGGUAGCCUUCCAACUUAAUCUAACUUGAGCCUCACAGUAACCCUGUAAAGUUAGUAGAGCUUGUUCUUGUAUUGUGACCUUUUUUAAAAAAAUGGAAUUCUCGGGUGCCAA,0.975
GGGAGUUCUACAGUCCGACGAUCCAGCCUCUGUGCCAUGCAGUGAGGGCUGUGGGUUCUGCCUGUUAGAACACUUCAGUAGCUAGCCCGUCUGGUUGAUUGUGCAUGGAACUGACAUGUUAACACCUGAUCACUGGAAUUCUCGGGUGCCAA,1.45
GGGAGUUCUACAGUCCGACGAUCUAGUGAGUAGGAGAUUCUGCCUUGUUCUGAUGAGCCUGUGCAGGGGCUCCAGGGGAGCAUGCUGUCCAGGGGGCACAGAAGGGUGGUGAGUGUGAUCAAAUCUAGUCUCAUGGAAUUCUCGGGUGCCAA,1.15
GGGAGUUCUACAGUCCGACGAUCGGAGCGGAGGGAGGACCAGUUGCAUGUGUUUCUGCCCACUCAUUUUGAGCAGCCAUAUUAUAAAAUGGAUCAUCAGAGCUGAGUGACAACACGAGAGUGGUACUGGUUUCUGGAAUUCUCGGGUGCCAA,1.69
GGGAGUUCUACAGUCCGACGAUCGCCCACGCUUAGGAAUGCUUGGCCUCUGGCAGGCAGGCAGCUGUACCCAAGCUGGUGGGCAGGGGGCUGGAAGGCACCAGGCCUCAGGAGGAGCCCCAUAGUCCCGCCUGUGGAAUUCUCGGGUGCCAA,0.429
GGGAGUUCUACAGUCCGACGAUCGACAAUCAAAAAUACUUAGAAGAUAAAGCUCAAGAAUUGGUGCGACUGGAAGGAGAGGUUCGCUCCCUCCUUAAGGACAUAAGUGAGAAAGUUGCGGUUUACAGCACCUGUGGAAUUCUCGGGUGCCAA,0.312
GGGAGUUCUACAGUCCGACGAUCAUAUAGCAUUUGGUUUUUACCUCCUAGCAUAUGCUACUUGGUAUGUGAGGGUUUCAGUACAAAUGCUGCUGUCUAUUUCUGUGCACUUAACAAUGGAACCCAAACAGAAGUGGAAUUCUCGGGUGCCAA,0.33
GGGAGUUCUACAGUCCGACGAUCCAGCACCUCCAAAGGUCCCUAGGACACUUUGCCUCUCUUCUCCCCCUGCCCCCCACCCUGCUCCCACAUCUGGGGGCCCAUGGGCCAGGAGUGGAUAAGCCUGCAUUAAUUGGAAUUCUCGGGUGCCAA,0.345
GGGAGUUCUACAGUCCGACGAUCUACCACCCGCCCUGGCUCCCCAGCUGCAGGUUGCACACCCUCAGCCUGAGAAUGUAAAAUAGGGCAGUGCCCAGCUGGGGAGGUAGAGGAAAGUGCUAGAGUACAUGGUCUGGAAUUCUCGGGUGCCAA,4.75

# Sample 3
# Target: Prothrombin, mature alpha-thrombin (F2, Homo sapiens, UniProt P00734)
# Technique: aptamer microarray, sandwich
# Molecule type: DNA with 2'F-ANA
# Medium: in vitro
# Concentration: 200 nM
# Notes: whole 15-mer aptamer, many near background
# Together with: Cy3 exosite-II aptamer, 400 nM
# Reading: higher = stronger binding
# Sequence: GGTTGGTGTGGTTGG
Modification,mean fluorescence intensity [a.u.]
2'F-ANA at 1 3 4 5 6 7 10 13,46.6
2'F-ANA at 1 3 7 8 12 13,587
2'F-ANA at 2 5 6 7 9 10 11 12 14 15,51.2
2'F-ANA at 1 3 4 5 6 9 10 12 13,50.5
2'F-ANA at 1 4 5 8 13 14,47.1
2'F-ANA at 1 5 6 9 10 11 12 14 15,166
2'F-ANA at 1 2 4 7 8 10 11 12 13,54.6
2'F-ANA at 2 3 4 11 15,545
2'F-ANA at 2 8 9 11 12 14 15,168
2'F-ANA at 1 2 3 4 5 6 7 9 10 12,53.4
2'F-ANA at 4 6 10 11 12 14 15,60.2
2'F-ANA at 2 3 4 5 6 9 11,72.9
2'F-ANA at 1 2 5 7 9 11 13 15,75.5
2'F-ANA at 7 8 10 11 15,197
2'F-ANA at 2 3 4 12 15,879
2'F-ANA at 1 2 4 6 7 8 9 10 11 12 13,53.3
2'F-ANA at 2 3 5 8 14 15,57.9
2'F-ANA at 2 3 6 7 9 10 11 14 15,228
2'F-ANA at 2 4 8 9 10 11 13,79
2'F-ANA at 1 3 4 5 6 7 8 9 13 14,54.3
2'F-ANA at 1 2 3 4 5 6 11 15,53.1

# Sample 4
# Target: Ras GTPase-activating protein-binding protein 1, full length (G3BP1, Homo sapiens, UniProt Q13283)
# UniProt Q13283, sequence (whole entry, looked up): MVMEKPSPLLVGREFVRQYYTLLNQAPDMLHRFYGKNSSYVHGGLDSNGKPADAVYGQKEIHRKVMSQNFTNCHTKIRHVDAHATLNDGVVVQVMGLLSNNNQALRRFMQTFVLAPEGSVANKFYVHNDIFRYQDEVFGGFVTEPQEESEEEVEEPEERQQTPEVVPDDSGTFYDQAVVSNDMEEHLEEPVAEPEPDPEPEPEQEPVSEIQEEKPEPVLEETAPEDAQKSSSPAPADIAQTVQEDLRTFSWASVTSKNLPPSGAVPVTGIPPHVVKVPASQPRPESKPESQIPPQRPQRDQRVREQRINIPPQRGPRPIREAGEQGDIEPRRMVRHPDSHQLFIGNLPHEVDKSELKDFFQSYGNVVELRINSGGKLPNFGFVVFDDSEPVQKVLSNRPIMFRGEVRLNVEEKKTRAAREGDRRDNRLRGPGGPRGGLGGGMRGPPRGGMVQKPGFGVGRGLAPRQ
# Technique: RNA Bind-n-Seq
# Molecule type: RNA
# Medium: in vitro
# Concentration: 200 nM
# Notes: whole 134-nt RNA, ends assumed
# Together with: 150 mM KCl
# Baseline: input library
# Reading: higher = stronger binding
Sequence,log2 enrichment
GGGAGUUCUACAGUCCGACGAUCUCAAGUCCUGUGCUACACAUCGUAUGUACCGAAUCGGUUUUUGGUGGUUUUUGGAAAGUAUUAUGUUACGCCGUUCGGAUCUGCACUUCCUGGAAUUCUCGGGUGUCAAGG,-0.85
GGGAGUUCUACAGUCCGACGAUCUGGUCAUGGGAUGGAGAACCAGUUCUUCCCUUAUAUCUUCACCAUAUGACUAUUGACCCUGUCUUAGGCUGCUCCCAGGCCGUUCCAUUGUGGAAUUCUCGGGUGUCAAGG,0.972
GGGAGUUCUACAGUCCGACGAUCCUGUGCUACACAUCGUAUGUACCGAAUCGGGGUUUGGGGUUUUUUUGGGGAAAAAAAGGGGAAAGUAUUAUGUUACGCCGUUCGGAUCUGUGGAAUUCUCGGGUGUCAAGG,-0.132
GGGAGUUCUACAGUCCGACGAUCUGGCCCUGGUGGCAUGCGGGGAGGAAGAGGUGGCCUCAUGGAUCGUGGUGGUCCCGGUGGAAUGUUCAGAGGUGGACGUGGUGGAGACAGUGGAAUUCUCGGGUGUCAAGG,0.365
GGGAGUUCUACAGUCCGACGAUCUGGCCCUGGUGGCAUGCGGGGAGGAAGAGGUGGCCUCAUGGAUCGUGGUGGUCCCGGUGGACUGUUCAGAGGUGGCCGUGGUGGAGACAGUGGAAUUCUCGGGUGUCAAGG,0.302
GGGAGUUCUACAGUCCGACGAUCCAAGUCCUGUGCUACACAUCGUAUGUACCGAAUCGGGUGGGAAAGGGAAAAAGGGAAAGUAUUAUGUUACGCCGUUCGGAUCUGCACUUCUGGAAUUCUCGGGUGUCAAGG,0.462
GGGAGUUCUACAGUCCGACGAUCUGGGAGGUGGAUUUUGUUUAUUUUUUUAGCUCAUUUCCAGGGGUGGGAAUUUUUUUUUAAUUUGUGUCAUGAAUAAAGUUGUUUUUGAAAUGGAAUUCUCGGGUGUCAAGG,0.229
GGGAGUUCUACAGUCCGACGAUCACCAUGCAGGUUGGCAUCUUUGGGAAGUGGGGCAAGGGGGGGAUAGGGAGGGGGGUAACACUUUGGGAACAGGUGGUCCCAGGUCGUUUCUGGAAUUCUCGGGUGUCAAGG,1.57
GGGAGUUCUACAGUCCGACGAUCAAGUCCUGUGCUACACAUCGUAUGUACCGAAUCGGCCCCGGGCCCCGGGGCCCCGGAAAGUAUUAUGUUACGCCGUUCGGAUCUGCACUUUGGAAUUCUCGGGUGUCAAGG,-0.129
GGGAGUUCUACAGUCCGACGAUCAGUCCUGUGCUACACAUCGUAUGUACCGAAUCGGGAAAAAAAGGGUUUGGGAAAGGGAAAGUAUUAUGUUACGCCGUUCGGAUCUGCACUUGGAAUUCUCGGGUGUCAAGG,-0.344

# A few entries again (sample 2):
Sequence,RBNS enrichment (R)
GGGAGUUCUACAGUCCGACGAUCGGAGCGGAGGGAGGACCAGUUGCAUGUGUUUCUGCCCACUCAUUUUGAGCAGCCAUAUUAUAAAAUGGAUCAUCAGAGCUGAGUGACAACACGAGAGUGGUACUGGUUUCUGGAAUUCUCGGGUGCCAA,1.69
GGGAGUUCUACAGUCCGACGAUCAUAUAGCAUUUGGUUUUUACCUCCUAGCAUAUGCUACUUGGUAUGUGAGGGUUUCAGUACAAAUGCUGCUGUCUAUUUCUGUGCACUUAACAAUGGAACCCAAACAGAAGUGGAAUUCUCGGGUGCCAA,0.33
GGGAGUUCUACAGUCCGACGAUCUACCACCCGCCCUGGCUCCCCAGCUGCAGGUUGCACACCCUCAGCCUGAGAAUGUAAAAUAGGGCAGUGCCCAGCUGGGGAGGUAGAGGAAAGUGCUAGAGUACAUGGUCUGGAAUUCUCGGGUGCCAA,4.75
